Assay results of several laboratories.
Every numbered part comes from another study and shows a few of its results, in no order. Changes are numbered by the printed parent chain.
Chain of UniProt P16257 (whole entry, looked up): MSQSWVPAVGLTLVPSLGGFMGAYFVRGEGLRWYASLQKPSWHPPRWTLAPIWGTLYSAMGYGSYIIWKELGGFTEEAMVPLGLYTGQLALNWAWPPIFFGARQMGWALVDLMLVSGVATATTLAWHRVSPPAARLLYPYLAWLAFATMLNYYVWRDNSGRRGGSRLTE

Study 1
Target: PABPC1L2, full length, GST fusion (mouse, UniProt A0ABA7IW68)
Technique: RNAcompete
Molecule type: RNA
Matrix: in vitro
Concentration: 20 nM
Notes: 7-mer, probes averaged, single round
Reference: mean of 7-mers
Direction: higher = stronger binding
Endpoint: 7-mer Z-score
Construct (chain): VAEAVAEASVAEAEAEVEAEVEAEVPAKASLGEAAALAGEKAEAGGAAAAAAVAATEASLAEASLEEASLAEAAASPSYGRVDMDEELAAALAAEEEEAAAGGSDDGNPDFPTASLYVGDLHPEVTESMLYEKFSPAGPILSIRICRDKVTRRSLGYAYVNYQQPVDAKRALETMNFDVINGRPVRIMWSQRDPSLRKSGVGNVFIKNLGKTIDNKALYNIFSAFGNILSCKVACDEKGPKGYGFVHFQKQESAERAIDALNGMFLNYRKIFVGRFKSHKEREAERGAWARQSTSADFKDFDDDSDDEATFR
GAAUGCC: -0.113
GGGUGUG: 0.167
CGACUCU: -0.364
GGGAGCC: -0.0554
UGCCAGG: -0.237
GACCGCU: -0.204
AAAAAAA: 17.6
CACCAUA: 0.215

Study 2
Target: CEP164, C-terminal peptide (human)
Technique: DHFR complementation, deep sequencing
Matrix: yeast
Notes: single substitutions, model-inferred values
Reference: wild type
Direction: higher = weaker binding
Endpoint: binding free energy change
Starting sequence: PDZK1, PDZ domain 2 (human); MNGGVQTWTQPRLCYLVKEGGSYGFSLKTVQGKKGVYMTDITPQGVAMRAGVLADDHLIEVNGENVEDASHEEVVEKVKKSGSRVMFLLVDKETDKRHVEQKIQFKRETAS; partner HNRVKVYRF
L53F: 0.0722 kcal/mol
H71M: -0.391 kcal/mol
G3K: -0.159 kcal/mol
E100A: -0.172 kcal/mol
G63W: 0.0959 kcal/mol
G4P: -0.0432 kcal/mol
G21S: -0.012 kcal/mol
L13R: -0.204 kcal/mol

Further values, each from its own experiment
Cc1nc(Oc2ccccc2)c(N)c(N2CCC(C)CC2)n1
remaining compound (human, microsomes or S9; 2 µM, 0.5 h): 0.803%

CC(C)n1cnc(-c2ccc(F)cc2)c1-c1ncc(C(=O)Nc2ccc(N3CCN(C)CC3)cc2)[nH]1
median hospitalized days (idiopathic pulmonary fibrosis patients; 60 mg once daily, acute exacerbation hospitalization): 19 days

CCC(=O)N[C@H]1CC[C@@H](C(=O)N(C)c2ccc(-c3nc4ccccc4o3)cc2)C1
inhibition (Translocator protein (Tspo, Rattus norvegicus, UniProt P16257); radioligand binding, radioligand displacement; 10 µM): 3.17%

COc1ccc(CN(Cc2ccc(OC)cc2)c2ncnc3c2[nH]c(=O)n3[C@H](C)c2cc3ccccc3nc2-c2ccccc2C)cc1
remaining compound (human, microsomes or S9; 2 µM, 0.5 h): 57.2%

PhoQ, residues 284 288 289 292 302 303 MLMVEA
fold induction (PhoP, residues 12 14 15 18 19 NYFTV (Escherichia coli, UniProt P23836); Sort-seq, refers to: YFP reporter; E. coli; PhoQ-PhoP variant library, with: 10 µM Mg2+; reference: high Mg2+ state, higher = stronger signaling): 8.94

CCOC(=O)C1SC2(C(F)(F)F)CC1(O)C(C)(C)CO2 (centres unmarked)
remaining compound (human, microsomes or S9; 2 µM, 0.5 h): 91%

COc1cc(C(=O)N2CCC(N3CCN(C)CC3)CC2)ccc1Nc1ncc2c(n1)N(C)c1ccccc1C(=O)N2C
binding (PKN1; KINOMEscan; 10 µM; reference: DMSO control, lower = stronger binding): 100%

Excerpt of the above (further values, each from its own experiment):
COc1ccc(CN(Cc2ccc(OC)cc2)c2ncnc3c2[nH]c(=O)n3[C@H](C)c2cc3ccccc3nc2-c2ccccc2C)cc1
remaining compound (human, microsomes or S9; 2 µM, 0.5 h): 57.2%

PhoQ, residues 284 288 289 292 302 303 MLMVEA
fold induction (PhoP, residues 12 14 15 18 19 NYFTV (Escherichia coli, UniProt P23836); Sort-seq, refers to: YFP reporter; E. coli; PhoQ-PhoP variant library, with: 10 µM Mg2+; reference: high Mg2+ state, higher = stronger signaling): 8.94

CCOC(=O)C1SC2(C(F)(F)F)CC1(O)C(C)(C)CO2 (centres unmarked)
remaining compound (human, microsomes or S9; 2 µM, 0.5 h): 91%
